Measured values collected from several papers.
A part holds a random share of what one study measured. Positions count from the first letter of the parent shown.

Block 1 — target: JUND, bZIP domain (human); technique: DHFR protein complementation; matrix: yeast; reference: wild-type JUN-FOS pair; reading: higher = stronger binding; measurement: binding fitness
Notes: single substitutions, most at no-binding floor
Starting sequence: JUN, bZIP domain (human); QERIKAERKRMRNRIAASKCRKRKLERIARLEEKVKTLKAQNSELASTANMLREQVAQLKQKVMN; partner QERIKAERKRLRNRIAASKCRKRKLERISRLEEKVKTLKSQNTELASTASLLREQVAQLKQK
T48L: -0.705 natural log
R30G: -0.812 natural log
Q55K: -0.917 natural log
K34Y: -0.809 natural log
A49V: -0.0372 natural log
T37L: -0.528 natural log
K36N: -0.78 natural log
A29S: -0.84 natural log
E44T: -0.947 natural log
E54I: -0.875 natural log
K39Q: -0.572 natural log
I28T: -1.16 natural log
A46V: -0.595 natural log
R53H: -1.13 natural log
V35Y: -0.914 natural log
K36I: -0.982 natural log
A29N: -0.787 natural log
E33R: -0.832 natural log
K39E: -0.274 natural log

Block 2 — technique: DHFR PCA, deep sequencing; matrix: yeast; added: (+)-ABA 1.4 µM; reference: wild-type fitted maximum; reading: higher = stronger binding; measurement: relative binding score
Target: ABI1, truncated, D143A, DHFR fusion (Arabidopsis thaliana)
Notes: methotrexate growth selection, single substitutions
Starting sequence: PYL1, truncated, DHFR fusion (Arabidopsis thaliana); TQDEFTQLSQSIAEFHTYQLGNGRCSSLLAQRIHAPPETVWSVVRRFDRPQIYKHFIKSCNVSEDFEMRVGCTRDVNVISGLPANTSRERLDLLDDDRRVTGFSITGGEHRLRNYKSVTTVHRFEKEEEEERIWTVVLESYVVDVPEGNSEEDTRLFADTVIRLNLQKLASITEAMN; partner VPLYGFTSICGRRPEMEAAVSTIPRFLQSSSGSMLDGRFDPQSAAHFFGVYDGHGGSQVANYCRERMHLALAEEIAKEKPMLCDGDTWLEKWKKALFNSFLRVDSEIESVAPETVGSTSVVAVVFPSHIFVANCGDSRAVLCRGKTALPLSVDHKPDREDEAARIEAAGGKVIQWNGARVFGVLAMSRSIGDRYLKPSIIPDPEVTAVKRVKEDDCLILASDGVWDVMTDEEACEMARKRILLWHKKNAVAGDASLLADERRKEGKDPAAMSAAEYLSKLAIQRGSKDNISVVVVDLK
H110V: 4.5%
W41C: -2.14%
N77S: 70.3%
F5G: 23.4%
R88L: 39.3%
N77W: 30.1%
I172Q: -12.7%
R111A: -4.95%
F5A: 38.9%
G102C: 3.52%
S59M: -1.38%
H55T: 75.1%
M68K: 6.09%
D75I: 76.2%
N165D: 23.4%
E125H: 66.7%
E4D: 53.9%
R49E: 42.8%
A170P: 4.5%
M68P: 23.4%
Q167L: 51.3%
E131S: 68.8%
S171F: 11.6%
V145K: -25.7%
F157K: 1.31%

Block 3 — target: CDC34 UBC core domain (UniProt P49427); technique: yeast two-hybrid; matrix: yeast; notes: mostly zero background; reference: not given; reading: higher = stronger interaction; measurement: lacZ reporter activity
B1: MID1 RING domain (UniProt O15344); chain METLESELTCPICLELFEDPLLLPCAHSLCFNCAHRILVSHCATNESVESITAFQCPTCRHVITLSQRGL
B2: TRIM69 RING domain (UniProt Q86WT6); chain VIQDITMELHCPLCNDWFRDPLMLSCGHNFCEACIQDFWRLQAKETFCPECKMLCQYNNCTF
B3: ARK2C RING domain (UniProt Q6ZSG1); chain EGEESDTDEKCTICLSMLEDGEDVRRLPCMHLFHQLCVDQWLAMSKKCPICRVDIETQLGAD
B4: TRIM63 RING domain (UniProt Q969Q1); chain PMENLEKQLICPICLEMFTKPVVILPCQHNLCRKCANDIFQAANPYWTSRGSSVSMSGGRFRCPTCRHEVIMDRHGV
B5: TRIM72 RING domain (UniProt Q6ZMU5); chain APGLLHQELSCPLCLQLFDAPVTAECGHSFCRACLGRVAGEPAADGTVLCPCCQAPTRPQALST
Construct (chain): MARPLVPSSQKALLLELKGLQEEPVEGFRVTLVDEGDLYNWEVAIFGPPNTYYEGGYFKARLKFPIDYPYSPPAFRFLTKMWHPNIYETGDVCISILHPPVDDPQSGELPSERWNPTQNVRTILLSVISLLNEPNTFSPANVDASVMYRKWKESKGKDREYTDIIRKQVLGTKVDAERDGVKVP
VTLSLTLPITCHICLGKVRQPVICINNHVFCSICIDLWLKNNSQCPACRVPITPENPCK (OBI1 RING domain (UniProt Q5W0B1)): 0
B1 (MID1 RING domain): 0
FPEHFVKSISCQICEHILADPVETNCKHVFCRVCILRCLKVMGSYCPSCRYPCFPTDLES (RAG1 RING domain (UniProt P15918)): 0
B2 (TRIM69 RING domain): 0
B3 (ARK2C RING domain): 0
B4 (TRIM63 RING domain): 0
B5 (TRIM72 RING domain): 0
DDENSDNSNECVVCLSDLRDTLILPCRHLCLCTSCADTLRYQANNCPICRLPFRALLQIR (MGRN1 RING domain (UniProt O60291)): 0
EDEVSDNSAECVVCLSDVRDTLILPCRHLCLCNTCADTLRYQANNCPICRLPFRALLQIR (RNF157 RING domain (UniProt Q96PX1)): 0
RLTMMWEEVTCPICLDPFVEPVSIECGHSFCQECISQVGKGGGSVCPVCRQRFLLKNLRP (TRIM21 RING domain (UniProt P19474)): 0
FASPPDSNFVCSVCHGVLKRPARLPCSHIFCKKCILRWLARQKTCPCCRKEVKRKKVVH (RNF151 RING domain (UniProt Q2KHN1)): 0
YWAMDSTFELCKICAESNKDVKIEPCGHLLCSCCLAAWQHSDSQTCPFCRCEIKGWEAVS (CBLC RING domain (UniProt Q9ULV8)): 0
PEELQAMDNVCIICREEMVTGAKRLPCNHIFHTSCLRSWFQRQQTCPTCRMDVLRASLPA (SYVN1 RING domain (UniProt Q86TM6)): 0

Block 4 — target: CCNE2, cyclin fold, Cln2 fusion (human); technique: yeast growth competition, sequencing; matrix: yeast; notes: strong parent motif; reference: not given; reading: higher = stronger binding; measurement: normalised enrichment score
Starting sequence: WEE1 docking peptide (human); HKTFRKLRLFDTP
T12H: 1.2
T12V: 1.11
R8L: 0.352
F10V: -0.236
P13F: 0.56
T3N: -0.174
F10E: 0.0647
K2Q: 1.07
R8I: 1.4
P13D: 0.976
P13A: 0.158
D11L: 0.975
T3G: 1.54
L7R: 1.04
F4C: 0.866
K2M: 0.0669
L7F: 1.08
K2E: 0.956
D11Q: 2.34
R5L: 0.647
F10D: 0.658
F10R: 1.25
H1E: 0.736
L9K: 0.646
L7D: -0.379

Excerpt of the above (block 3):
FPEHFVKSISCQICEHILADPVETNCKHVFCRVCILRCLKVMGSYCPSCRYPCFPTDLES (RAG1 RING domain (UniProt P15918)): 0
B2 (TRIM69 RING domain): 0
B3 (ARK2C RING domain): 0
B4 (TRIM63 RING domain): 0
B5 (TRIM72 RING domain): 0
DDENSDNSNECVVCLSDLRDTLILPCRHLCLCTSCADTLRYQANNCPICRLPFRALLQIR (MGRN1 RING domain (UniProt O60291)): 0
EDEVSDNSAECVVCLSDVRDTLILPCRHLCLCNTCADTLRYQANNCPICRLPFRALLQIR (RNF157 RING domain (UniProt Q96PX1)): 0
